Experimental data pooled from the literature.
Parts stem from different laboratories: compare values within a part only.

Study 1
Target: Centromere-binding protein 1, full length, N-terminal tag (CBF1, Saccharomyces cerevisiae, UniProt P17106, residues 1-351)
Sequence of UniProt P17106 (whole entry, looked up): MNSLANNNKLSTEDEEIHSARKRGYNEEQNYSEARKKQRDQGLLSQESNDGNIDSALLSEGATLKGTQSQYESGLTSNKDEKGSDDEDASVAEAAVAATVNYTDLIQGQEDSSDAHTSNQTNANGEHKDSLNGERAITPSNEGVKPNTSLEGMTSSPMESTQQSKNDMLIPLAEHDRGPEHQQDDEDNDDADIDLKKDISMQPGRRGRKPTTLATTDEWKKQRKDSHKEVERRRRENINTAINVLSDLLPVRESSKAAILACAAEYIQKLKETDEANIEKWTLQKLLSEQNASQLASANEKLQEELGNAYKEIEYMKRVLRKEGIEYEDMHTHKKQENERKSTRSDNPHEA
Method: protein-binding microarray
Form: double-stranded DNA, one strand shown
Medium: in vitro
Tested at: 0.8 µM
Notes: whole 60-bp probe, no competitor
Direction: higher = stronger binding
`GAATAATCTTCGTATCGCGTGATGTGTTAGAAGTAGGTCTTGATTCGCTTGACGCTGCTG` has a fluorescence intensity of 1600 a.u.
`CTAAGAATAATAGGGCACGGTACGTTCATTCCATTCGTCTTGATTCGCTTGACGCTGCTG` has a fluorescence intensity of 563 a.u.
For `TGTACGAAGCTATAGGCCGTGACTATAGTAGTTAGGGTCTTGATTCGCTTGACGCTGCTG`, the fluorescence intensity was 590 a.u.
`CTAGCATACATAATTCTGATGTTCTAGTTATACTTCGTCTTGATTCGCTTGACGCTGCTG` gave a fluorescence intensity of 556 a.u.
`GAAGAGCAGGATGATCCCGTGCCCGAACTGGATTAGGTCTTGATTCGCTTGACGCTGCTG` gave a fluorescence intensity of 1340 a.u.
`GAAACTTTCGGAAATCACGCAAATATTATGCACTAGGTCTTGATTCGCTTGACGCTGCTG` has a fluorescence intensity of 548 a.u.
The fluorescence intensity of `GAAAGAAGAAAAGCTGACGAAAAAAGAACTCATTAGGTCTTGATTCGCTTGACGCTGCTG` is reported as 519 a.u.
`CTATGGCTCAGTAATCACGAATAAAAGTAGGTGTTCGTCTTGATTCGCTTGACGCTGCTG` has a fluorescence intensity of 571 a.u.
For `CTATTGATTTAGTGTCATGAGAGTGCTCCAAATTTCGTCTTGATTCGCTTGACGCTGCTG`, the fluorescence intensity was 587 a.u.
`GAAGTACCTTGACATGGCGTGTTACGTGTTTCATAGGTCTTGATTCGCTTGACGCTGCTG` gave a fluorescence intensity of 524 a.u.
With `CTAAACCTATAAACACACGTTTTATACTTTATCTTCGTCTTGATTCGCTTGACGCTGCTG` the fluorescence intensity was 544 a.u.
`CTACGAATAGGTCTTCATGTGCGCCTGAATCAGTTCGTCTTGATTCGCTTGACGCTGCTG` has a fluorescence intensity of 578 a.u.
The fluorescence intensity of `CCTAACTACTATAAGTGTGTGACATAGCTTCGTACAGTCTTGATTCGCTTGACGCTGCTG` is reported as 593 a.u.
`GAATTACTTCTGTATATCGTGAAGTAGTAAGTGTAGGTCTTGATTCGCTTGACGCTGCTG` gave a fluorescence intensity of 549 a.u.
`GAAGAATGTTCATACGTGATTATAAGAATCGAGTAGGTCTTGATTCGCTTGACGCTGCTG` gave a fluorescence intensity of 624 a.u.
For `CCTAACTACTATAATCATGATCTATAGCTTCGTACAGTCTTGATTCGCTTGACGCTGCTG`, the fluorescence intensity was 547 a.u.
`GAATAATTAAGAGGTGGTGTCTTACACTCACCATAGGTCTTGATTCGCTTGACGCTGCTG` gave a fluorescence intensity of 486 a.u.

Study 2
Target: Histone acetyltransferase KAT6A, both winged helices, GST fusion (KAT6A, Homo sapiens, UniProt Q92794, residues 1-181)
Method: protein binding microarray
Form: double-stranded DNA, one strand shown
Medium: in vitro
Tested at: not given
Notes: 8-mer, flanks averaged, mean of 2 arrays, mostly near background
Reference: not given
Direction: higher = stronger binding
Target sequence (chain): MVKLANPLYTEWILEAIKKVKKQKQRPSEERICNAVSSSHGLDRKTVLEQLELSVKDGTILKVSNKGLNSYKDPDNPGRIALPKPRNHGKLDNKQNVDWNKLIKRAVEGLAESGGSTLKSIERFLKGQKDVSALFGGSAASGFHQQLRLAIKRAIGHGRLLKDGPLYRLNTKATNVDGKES
`GACCTCTC` gave an E-score of -0.051.
With `CGGACCTC` the E-score was 0.133.
With `CACAACAA` the E-score was 0.00991.
For `CCGGCTCA`, the E-score was 0.0991.
`CGGAACCA` has an E-score of 0.156.
The E-score of `GAAATGTA` is reported as -0.157.
For `GCTTAGTA`, the E-score was 0.091.
With `AAGAAACC` the E-score was -0.00825.
`TACATTCA` has an E-score of -0.072.
With `CCCCGGAG` the E-score was 0.0498.
The E-score of `ATATAATA` is reported as -0.0665.
For `GATTCTAC`, the E-score was 0.0169.
For `AGACTCCT`, the E-score was -0.137.
The E-score of `GGCTTACC` is reported as 0.0336.
`ATTATGCA` gave an E-score of -0.0652.
`AATTAAGT` gave an E-score of -0.083.
The E-score of `TAAGGGGA` is reported as -0.252.
The E-score of `GATTCCAC` is reported as 0.00017.
The E-score of `ATAGGCTA` is reported as -0.127.
The E-score of `CGAATTGC` is reported as 0.129.
`CCCTATTA` gave an E-score of -0.177.
The E-score of `CCCTTGAC` is reported as -0.0101.
`CTTGTTAC` has an E-score of -0.0483.

Study 3
Target: RING finger protein unkempt homolog, zinc fingers 1-6, GST-SBP tag (UNK, Homo sapiens, UniProt Q9C0B0, residues 30-357)
Method: RNA Bind-n-Seq
Form: RNA
Medium: in vitro
Tested at: not given
Notes: RNA with constant flanks, human-mouse chimeric sites, ends assumed
Reference: input RNA pool
Direction: higher = stronger binding
Residues (chain): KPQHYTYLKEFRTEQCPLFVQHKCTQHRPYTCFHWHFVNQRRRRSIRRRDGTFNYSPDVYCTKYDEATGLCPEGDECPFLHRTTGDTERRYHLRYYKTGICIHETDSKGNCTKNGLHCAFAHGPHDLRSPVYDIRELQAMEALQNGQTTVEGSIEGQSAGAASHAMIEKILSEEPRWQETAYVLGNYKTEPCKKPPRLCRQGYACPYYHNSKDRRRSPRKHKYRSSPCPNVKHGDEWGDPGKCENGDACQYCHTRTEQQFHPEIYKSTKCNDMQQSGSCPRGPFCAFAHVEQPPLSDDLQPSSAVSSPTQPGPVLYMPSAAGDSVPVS
The bound/input enrichment of `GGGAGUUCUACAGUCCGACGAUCGAAACAUUUAAAUUUAAAGAAGCUGUUGUUCUAGGAAGCACGGACUUUCUAGAAGAUGAUAUAGAGAAAAUUGUAGAAGAACUGGGGAAAGAGUAUAAGGGCAACGCUUAUCAUUUAAUGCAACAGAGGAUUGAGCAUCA` is reported as 1.93 ratio.
The bound/input enrichment of `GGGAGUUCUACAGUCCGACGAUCGUGCCCUUCUCGCUGCUGCGGAGCCCGAGCUGGGAACCAUUCCGGGACUGGUACCCUCCGCAUAGCCGCCUCUUCGAUCAAGCUUUCGGGGUGCCCCGGUUGCCCGAUGAGUGGUCGCAGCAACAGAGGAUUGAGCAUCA` is reported as 0.057 ratio.
With `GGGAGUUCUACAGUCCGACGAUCCGCUGGCCCAAGCUGAUGUAAAUGUUUCUUGAUCUCUUCUCAGGCACGUGUGCCUUCUCUUAGUCCCUGUUUUCGGGAUGUUAUGAAUCUCAGUACUGUGGUUUGAAAGCACCAGCUUUGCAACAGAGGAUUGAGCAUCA` the bound/input enrichment was 0.21 ratio.
For `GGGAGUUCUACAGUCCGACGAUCUACAUCACCAAUGUCCUACAAAAUCCUGACUUGGCUCUGAGAAUGGCUGUACGUAAUAACUUAGCUGGUGCUGAAGAACUCUUUGCCCGGAAAUUUAAUGCUCUCUUCGCCCAGGGAAACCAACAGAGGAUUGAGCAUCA`, the bound/input enrichment was 0.34 ratio.
The bound/input enrichment of `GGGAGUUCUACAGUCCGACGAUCGUAGCUGGGACUACAGAAAUGCUGGUAAUUUCAGUCACUUGCUGAUGACUUCUGAUGUCCCAGCAAAUGUUGGCAUUCACUGCAAUACUGUGAAGACUUCUGAGGACCCACGUCUAAGGUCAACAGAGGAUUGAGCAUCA` is reported as 0.109 ratio.
`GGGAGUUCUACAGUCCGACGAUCCAGCCUCAGAGCCCUGACUUCCUGGAUAUCACCAACCCUAAAGCGGUAUUAGAAAAUGCAUUGAGAAACUUCGCCUGUCUGACGACUGGAGAUGUGAUUGCUAUCAACUACAAUGAGAAGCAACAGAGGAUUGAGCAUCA` gave a bound/input enrichment of 0.669 ratio.
The bound/input enrichment of `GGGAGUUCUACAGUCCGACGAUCGAUCAUGGAACCAGAAUAGAAAUGAAGAUGAGAUUACCCAGACGAGCCAAAACAGCUGCGCUACAGAAAAGUAAACUUAACCUUGCAGAGUUCCUUAAUGAAGAUACUAAGUUAGGAAGCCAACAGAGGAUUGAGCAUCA` is reported as 1 ratio.
For `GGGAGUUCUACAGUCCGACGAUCCCAAUCGUGGAGCAGUACUUGAAGACAAAGAAAAAUUCUAAUAAUUUAAUCAUCAAGUACAUUAGCUGCCGGCUGGUGACACUCAUCAUUAUACUGUUAGCGUGUAUCUACCUGGGCUAUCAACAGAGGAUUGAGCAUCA`, the bound/input enrichment was 0.402 ratio.

Study 4
Target: RNA binding protein fox-1 homolog 2, RRM domain, GST-SBP tag (RBFOX2, Homo sapiens, UniProt O43251-10, residues 100-194)
Method: RNA Bind-n-Seq
Form: RNA
Medium: in vitro
Tested at: 365 nM
Notes: natural RNA segment, single round, ends assumed
Reference: no-protein control
Direction: higher = stronger binding
Residues (chain): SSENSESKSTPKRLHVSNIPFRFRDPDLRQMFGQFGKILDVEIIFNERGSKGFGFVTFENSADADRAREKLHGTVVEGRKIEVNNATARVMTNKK
Under “RBNS enrichment (R)”, `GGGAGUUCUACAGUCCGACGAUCUUGCAGAGGUAUGUCAUUGGUUCUUAAACUGUCAAAAAUAAAGAUGUACAAAAACAGACUUAAAAGGCAACUUUUUUCAAUGGUACAGUAUAUUUUAAACACACAGCCUUUGGAAUUCUCGGGUGCCAA` is recorded as 0.307.
`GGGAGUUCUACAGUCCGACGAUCCAGUUGACCAUCUAGGGCAUAUUAAACUGUGAAGCUUUCCCAGUGCACUUUGAAUAUGGAAGAGAAUUUGAGCAGACCCCCGCGGGACCAAGACUGAAAGAGGCAAGGUCUGGAAUUCUCGGGUGCCAA`: “RBNS enrichment (R)” 1.71.
`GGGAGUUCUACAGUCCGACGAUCCUGGAGAUCAGGGAGCUUCGUGUGUGUGUGUGUGUGUGUGUGUGUGUGUGUGUGUGUGUGUGCGUGCGCGCGCGCGUGCGCACGCACGUGCAUGCACAUGCUAUGUAUUGUGGAAUUCUCGGGUGCCAA` — result for “RBNS enrichment (R)”: 3.4.
`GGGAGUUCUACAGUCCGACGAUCUUCAAACCAUCCCGGUGGCUGGGAUGCAAGCUCAAGUUUGAGAACCACUGGUUUUGUCCUGGUGUUUCCAGCACCAGAAUCCCAGCUUGGUGAGGUUUGAAGUUUCAGUGUGGAAUUCUCGGGUGCCAA`: “RBNS enrichment (R)” 0.473.
For `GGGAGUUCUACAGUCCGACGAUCGAGGGUUCCCGGCCUGCAGGUGCUCUUUCCUCUUGGUCCCAAGCAUCUGUGCAGGGUCGUGGGAGCCACACUGAGAGACUUGUGUGGGCCAGACAAGCUUCAUUCUGAUGUGGAAUUCUCGGGUGCCAA`, “RBNS enrichment (R)” read 0.337.
For `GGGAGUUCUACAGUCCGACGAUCCGGACCAGGGAGGCGUCCCUCCCUAGGAGCCACACAUUAUACUCCAAGUCCCUGCCGGGCUCCGCCUUUCCCCCACCCUGGCUCUCAGGGUGACGCCACCCACAGAGAUUUGGAAUUCUCGGGUGCCAA`, “RBNS enrichment (R)” read 0.296.
For `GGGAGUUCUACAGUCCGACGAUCAGGGUACCCACUACUCAGGCCUCCCUAGCGCCUCCUCCCCUAACGUCUCCCCGGCCUACUCAUCCUGAGUCACCCUAUCACCAUGGGAGGUGGAGCCUCAAACUAAAACCUGGAAUUCUCGGGUGCCAA`, “RBNS enrichment (R)” read 0.398.
`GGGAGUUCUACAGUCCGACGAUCGCCACCCAGUGGAAGGACACUCUUGGCUCGUUUGGGCUCAAGGCACCGCAGCCUGUCAGCCAACAUUGCCUUGCAUUUGUACCUUAUUGAUCUUUGCCCAUGGAAGUCUCUGGAAUUCUCGGGUGCCAA` — result for “RBNS enrichment (R)”: 0.39.

A few entries again (study 2):
For `AGACTCCT`, the E-score was -0.137.
The E-score of `GGCTTACC` is reported as 0.0336.
`ATTATGCA` gave an E-score of -0.0652.
`AATTAAGT` gave an E-score of -0.083.
The E-score of `TAAGGGGA` is reported as -0.252.
The E-score of `GATTCCAC` is reported as 0.00017.
